Measurements of several laboratories.
Numbered parts are unrelated; each lists some results of a single study.

Set 1
Target: RNA binding protein fox-1 homolog 2, RRM domain, GST-SBP tag (RBFOX2, Homo sapiens, UniProt O43251-10, residues 100-194)
Method: RNA Bind-n-Seq
Form: RNA
Sample: in vitro
Tested at: 365 nM
Setting: natural RNA segment, single round, ends assumed
Baseline: no-protein control
Reading: higher = stronger binding
All sequences stand within: GGGAGUUCUACAGUCCGACGAUC … UGGAAUUCUCGGGUGCCAA
Construct (chain): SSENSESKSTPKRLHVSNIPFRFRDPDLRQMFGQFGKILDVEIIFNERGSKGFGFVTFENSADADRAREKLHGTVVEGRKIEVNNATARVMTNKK
`AGUCCACAGCCUCAGGACAAAUGUCGUUGAGGUUACAGAGUAAGAAAUGAUGGCAAAACGUCAAACUCUUAUUUCAGAGCUUCAUGAAUUUAGUUAGACUAAACAUAAUU`: “RBNS enrichment (R)” 0.231.
`UCCUCGCAUGUAAUCAGGGAGCACGCAUGCACGUUGAGUGGGUGCAUCCUGCCUAAGCUGUGUCCCUGAGUGGUGGCUUUCCCUCCUGUCACGUGACAUCCCAUUCACUC` — result for “RBNS enrichment (R)”: 23.7.
`GCCACUGCUUGUGUCAAGGGAGGCAGGCAGAAGAGAUGAGUCCAUUCCUCAGGGACAGGUACCUGUACCUACCCCGAUUCCAAACCUACCUGCCUGGUGAGAACUCCUGC` — result for “RBNS enrichment (R)”: 0.432.
Under “RBNS enrichment (R)”, `AGGAGGCAGCUCUCCCCACACAGCAGCACAGCCAUCACAGGAUUCCUUGUGUAGAAAUGAUUCCCAGUCUAGUUACCAACAGCUAGUCUAGGAGUAAUUGAAUGGCCCUA` is recorded as 0.297.
Under “RBNS enrichment (R)”, `CAGUGUCUAGCAAUGGUUUGGUUUGCAGAGAACACAGCCUGAUACUUAAUUUUCUUAAAACUAUUUUUAAUGAUCCACUAAACAAAGCAGGGGAUCCUGAAGCUGAUAUA` is recorded as 0.504.
`GAUGUAGAUUCGUCCUUUAUUGGUAGUCGCAGUUGAUAUUUCAAGAGAGUGAGAUGCCAUGCUGACAAUAUUAAGAUCUAUUUGAAUAUUUAGAAAUGUCUUACUGUAUA`: “RBNS enrichment (R)” 0.456.
For `AACUUGGAUCUCAGGUACCUCAAUUUUUCCCCCAAUUUCUGGCUACUACUAAAAGCCAGAAAGAACAGAACAGUGGCCUCAGGAGAUCUGAGUUUGAAUCCUUGCUCUCU`, “RBNS enrichment (R)” read 0.249.
`UGGGAGUCCCGGGACAGAGUGCCCACUCCCCUCUACUUGCUGCUCUGGGCCUCCCCACCUUUCCUGGGGUCUCCACAUUCCCACUAGUGGGUCUUAUGUGUGUCUGUGUC`: “RBNS enrichment (R)” 0.517.
`CAGUGGUUCACCUUCCUGGGCUGUCCCCAGUGGUCACGUCCUGCCUGGCUUCCUACUUGGGUAUAGCAUGUCCAAACUGGGCUCUGAACACUACAGCCUGCCUUGGAGCU` — result for “RBNS enrichment (R)”: 2.57.
For `GGCCAGCUGAGGGGAAGUUGCUGGUGAGUUUCCUUUUCUCCAUUUCUAGCAUAUGGACACCUGGCCUCUGCUUGAGCACUUAGGUGACAGGAACUUCCGCACCUCCUGAG`, “RBNS enrichment (R)” read 0.593.
Under “RBNS enrichment (R)”, `CUGGGUAUUUUUGUUUUUGUUUAGUUUUAGGUUUACAACAGAGAGGAAUUAAUUUAUCAGCAGCCUAAAACUGUUGUGUUUUUCUUAUGGUUUAAAAAACGCCAUGUCAU` is recorded as 1.19.
`UGGGUGGAUCACCAGAGGUCAGGAGUUCGAGACCAGCCCAGCCAACAUGGCAAAACCCCAUCUCUACUAAAAAUACAAAAAUGAGCUAGGCAUGGUGGCACACGCCUGUA` — result for “RBNS enrichment (R)”: 0.835.

Set 2
Target: Interferon regulatory factor 7, full length, phosphomimetic (IRF7, Homo sapiens, UniProt Q92985, residues 1-503, S471D/S472D/S475D/S476D/S477D/S483D/S484D/S487D)
Method: protein-binding microarray
Form: double-stranded DNA, one strand shown
Sample: in vitro
Tested at: 2200 nM top
Setting: 60-bp whole probe
Added: salmon DNA 0.4 mg/ml
Baseline: random background probes
Reading: higher = stronger binding
All sequences stand within: GCCTAGCAC … GTCTTGATTCGCTTGACGCTGCTG
Target sequence (chain): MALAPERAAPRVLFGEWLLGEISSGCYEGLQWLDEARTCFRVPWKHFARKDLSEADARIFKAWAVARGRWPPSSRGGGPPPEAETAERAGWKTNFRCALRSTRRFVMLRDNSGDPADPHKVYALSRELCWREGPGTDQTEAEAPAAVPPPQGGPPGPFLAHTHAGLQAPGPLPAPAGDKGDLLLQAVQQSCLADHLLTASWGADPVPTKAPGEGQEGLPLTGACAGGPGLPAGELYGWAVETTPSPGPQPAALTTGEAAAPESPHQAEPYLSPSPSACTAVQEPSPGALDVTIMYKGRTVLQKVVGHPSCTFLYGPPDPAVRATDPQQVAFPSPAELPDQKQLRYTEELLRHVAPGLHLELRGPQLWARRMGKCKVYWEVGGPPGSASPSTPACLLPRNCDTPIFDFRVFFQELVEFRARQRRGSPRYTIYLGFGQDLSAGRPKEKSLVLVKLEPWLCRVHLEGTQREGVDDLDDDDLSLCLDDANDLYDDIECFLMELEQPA
Under “fitted relative affinity”, `GACGGTATCGGTTTCGGGAAGTGCTAG` is recorded as 2.79 z-score.
For `TCAATGATCCAGTTTTACACTGTGCTA`, “fitted relative affinity” read 0.177 z-score.
`TTCTGAAGCAGAGCCCTGTTGTGCTAG` — result for “fitted relative affinity”: -0.377 z-score.
`TTAGGTTTCAGTCTCGGTTAGTGCTAG`: “fitted relative affinity” 2.19 z-score.
`GACGGTTCCGGTTTCGTGACGTGCTAG` — result for “fitted relative affinity”: 4.47 z-score.
Under “fitted relative affinity”, `TATATATCCATTATAGATGAGTGCTAG` is recorded as 0.607 z-score.
For `TTACATATCAGTATCGATTAGTGCTAG`, “fitted relative affinity” read 1.36 z-score.
`TAAGGTATCGGGACTGGGTTAGTGCTA`: “fitted relative affinity” -0.582 z-score.
`TCATGTCTCAGAGTCCTACTGTGCTAG` — result for “fitted relative affinity”: 1.09 z-score.
For `GACGGACTGGGTTATCGGGACGTGCTA`, “fitted relative affinity” read -0.645 z-score.
`TTAGGTCTCGCACTGGGTTAGTGCTAG`: “fitted relative affinity” 0.272 z-score.

Set 3
Target: PABPC1L2, full length, GST fusion (mouse, UniProt A0ABA7IW68)
Method: RNAcompete
Form: RNA
Sample: in vitro
Tested at: 20 nM
Setting: 7-mer, probes averaged, single round
Baseline: mean of 7-mers
Reading: higher = stronger binding
Residues (chain): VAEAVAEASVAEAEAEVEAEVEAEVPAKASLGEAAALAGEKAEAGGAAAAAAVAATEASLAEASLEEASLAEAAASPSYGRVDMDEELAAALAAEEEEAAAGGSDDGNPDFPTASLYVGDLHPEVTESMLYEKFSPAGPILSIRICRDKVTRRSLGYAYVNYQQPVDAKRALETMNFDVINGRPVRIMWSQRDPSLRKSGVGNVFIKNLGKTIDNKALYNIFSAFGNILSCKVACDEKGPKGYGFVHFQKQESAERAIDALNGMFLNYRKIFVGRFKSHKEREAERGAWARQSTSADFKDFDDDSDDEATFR
The 7-mer Z-score of `GGUAUGU` is reported as 0.0261.
With `UAAAUAG` the 7-mer Z-score was 1.79.
With `UUAUUAU` the 7-mer Z-score was -0.211.
`ACUAACA` gave a 7-mer Z-score of 0.046.
`GGAGGUA` gave a 7-mer Z-score of 0.0515.
`UAUAGAA` has a 7-mer Z-score of 0.32.
With `AAGCAGC` the 7-mer Z-score was 0.329.
`ACCUUAU` gave a 7-mer Z-score of -0.215.
For `UAUUCGC`, the 7-mer Z-score was -0.4.
`CUACUCU` has a 7-mer Z-score of -0.345.
`ACGGUCA` has a 7-mer Z-score of -0.0192.
`GUAUAUU` has a 7-mer Z-score of -0.186.
`AGAGCUU` gave a 7-mer Z-score of -0.28.
With `UCAAAAU` the 7-mer Z-score was 1.1.
`CCCGAUU` has a 7-mer Z-score of -0.266.

Other studies, line by line
With `PhoQ, residues 284 288 289 292 302 303 TNSAEL` the fold induction was 4.32 (PhoP, residues 12 14 15 18 19 IQFRS (Escherichia coli, UniProt P23836); Sort-seq, refers to: YFP reporter; E. coli; PhoQ-PhoP variant library, added: 10 µM Mg2+; baseline: high Mg2+ state, higher = stronger signaling).

For quick reference, copied from above (set 2):
Under “fitted relative affinity”, `GACGGTATCGGTTTCGGGAAGTGCTAG` is recorded as 2.79 z-score.
For `TCAATGATCCAGTTTTACACTGTGCTA`, “fitted relative affinity” read 0.177 z-score.
`TTCTGAAGCAGAGCCCTGTTGTGCTAG` — result for “fitted relative affinity”: -0.377 z-score.
`TTAGGTTTCAGTCTCGGTTAGTGCTAG`: “fitted relative affinity” 2.19 z-score.
`GACGGTTCCGGTTTCGTGACGTGCTAG` — result for “fitted relative affinity”: 4.47 z-score.
